{"data": "Measured values pooled from the literature"}
{"SMILES": "Cc1noc(C)c1CC(=O)N1CCOc2c(cc(-c3cccnc3)cc2OCC2CCCN(C)C2)C1 (centres unmarked)", "cell line": "J774.A1 macrophages", "assay": "cytotoxicity", "quantity": "EC50", "result": "> 50 µM"}
{"SMILES": "CNc1ncc2c(/C=C/C(=O)N3CCC(OC)CC3)nn(Cc3cccc(C(F)(F)F)c3)c2n1", "cell line": "CP-A pre-malignant", "assay": "cell viability, PrestoBlue", "conditions": "120 h", "quantity": "EC50", "result": "0.41 µM"}
{"SMILES": "CN1c2c([nH]c(N)nc2=O)NCC1CNc1ccc(C(=O)N[C@@H](CCC(=O)O)C(=O)O)cc1 (some centres unmarked)", "cell line": "WA09 MTHFR C677T(+/−) forebrain tissues", "assay": "neural rosette emergence rescue", "conditions": "added: methotrexate 1 µM", "quantity": "EC50", "result": "3.7 µM"}
{"SMILES": "CC1(C)CCC(CN2CCN(c3ccc(C(=O)NS(=O)(=O)c4ccc(NCC5CCOCC5)c([N+](=O)[O-])c4)c(Oc4cnc5[nH]ccc5c4)c3)CC2)=C(c2ccc(Cl)cc2)C1", "cell line": "canine normal blood CD3+ T cells", "assay": "cell killing", "conditions": "24 h", "quantity": "EC50", "result": "1.99 µM"}
{"SMILES": "Cc1noc(C)c1CC(=O)N1CCOc2c(cc(CC3CC3)cc2OCC2CCCN(C)C2)C1 (centres unmarked)", "cell line": "J774.A1 macrophages", "assay": "cytotoxicity", "quantity": "EC50", "result": "> 50 µM"}
{"SMILES": "C/C=C(/C)C(=O)OCc1nccc2c1C(=O)C(O)=C(C)C2=O", "cell line": "786-0 HRE-luciferase reporter cells", "assay": "reporter gene, inhibitor", "conditions": "24 h", "quantity": "EC50", "result": "> 100 µM"}
{"SMILES": "Cn1cc(-c2ccc(-c3cncc(Cl)c3N3CCC4(CCNC4=O)CC3)cc2)cn1", "cell line": "COLO 205", "assay": "gene expression, microarray, refers to: CYP27B1 mRNA", "conditions": "concentration not given, 2 h", "scale": "baseline: untreated cells", "quantity": "log2 fold change", "result": 2.18}
{"SMILES": "CC(=O)OC[C@]12CCCC(C)(C)[C@@H]1CC[C@]1(C)[C@@H]2C[C@H]2OC(=O)[C@H]3[C@H](C(C)=O)[C@@H](O)C[C@@H]1[C@]23C", "cell line": "786-0 HRE-luciferase reporter cells", "assay": "reporter gene, inhibitor", "conditions": "24 h", "quantity": "EC50", "result": "> 100 µM"}
{"SMILES": "CC(=O)O[C@H]1C(=O)[C@@]2(C)[C@H]([C@H](OC(=O)c3ccccc3)[C@]3(O)C[C@H](OC(=O)[C@H](O)[C@@H](NC(=O)c4ccccc4)c4ccccc4)C(C)=C1C3(C)C)[C@]1(OC(C)=O)CO[C@@H]1C[C@@H]2O", "cell line": "EPC-2 pre-malignant", "assay": "cell viability, PrestoBlue", "conditions": "120 h", "quantity": "EC50", "result": "0.00087 µM"}
{"SMILES": "CC(C)c1nc(CN(C)C(=O)N[C@@H](CCN2CCOCC2)C(=O)N[C@H](CC[C@H](Cc2ccccc2)NC(=O)OCc2cncs2)Cc2ccccc2)cs1", "cell line": "ΔE-expressing cells", "assay": "ΔE mislocalization, high-content imaging", "quantity": "EC50", "result": "17.5 µM"}
{"SMILES": "COc1cnc2cccc(N3CCc4c(cc(Cn5ccnc5C)cc4-c4cn(C)nc4C(F)(F)F)C3=O)c2c1", "cell line": "ZR-75-1", "assay": "cell growth, inhibitor", "conditions": "120 h", "quantity": "EC50", "result": "8.1 µM"}
{"SMILES": "C[C@]1(c2nc3c(C(N)=O)cccc3[nH]2)CCCN1", "cell line": "UWB1289 (BRCA1 deficient)", "assay": "cell growth, inhibitor, CellTiter-Glo", "conditions": "7 days", "quantity": "EC50", "result": "1.8 µM"}
{"SMILES": "Cc1cccc(C)c1OCC(=O)N[C@@H](Cc1ccccc1)[C@@H](O)C[C@H](Cc1ccccc1)NC(=O)[C@H](C(C)C)N1CCCNC1=O", "cell line": "ΔE-expressing cells", "assay": "ΔE mislocalization, high-content imaging", "quantity": "EC50", "result": "4.69 µM"}
{"SMILES": "O=C(c1cc(Cc2n[nH]c(=O)c3ccccc23)ccc1F)N1CCN(C(=O)C2CC2)CC1", "cell line": "MDA-MB-436 (BRCA1 deficient)", "assay": "cell growth, inhibitor, CellTiter-Glo", "conditions": "7 days", "quantity": "EC50", "result": "0.021 µM"}
{"SMILES": "COc1cc(-c2nn(CCN3CCC(N(C)C)CC3)c3ncnc(N)c23)ccc1NC(=O)OC(C)(C)C", "cell line": "CP-A pre-malignant", "assay": "cell viability, PrestoBlue", "conditions": "120 h", "quantity": "EC50", "result": "27.8 µM"}
{"SMILES": "C[C@]12CCCN1CC1=NNC(=O)c3cc(F)cc4[nH]c2c1c34", "cell line": "LoVo", "conditions": "added: temozolomide", "quantity": "EC50", "result": "> 3 µM"}
{"SMILES": "CCn1cc(-c2cc(Cn3ccoc3=N)cc3c2CCN([C@@H](C)c2cc(OC)ccn2)C3=O)c(C(F)(F)F)n1", "cell line": "LoVo", "assay": "cell growth, inhibitor", "conditions": "120 h", "quantity": "EC50", "result": "1.95 µM"}
{"SMILES": "Cc1noc(C)c1CC(=O)N1CCOc2c(cc(-c3ccn(C)n3)cc2OCC2CCCN(C)C2)C1 (centres unmarked)", "cell line": "J774.A1 macrophages", "assay": "cytotoxicity", "quantity": "EC50", "result": "> 50 µM"}
{"SMILES": "C=CC[C@@H]1/C=C(\\C)C[C@H](C)C[C@H](OC)[C@H]2O[C@@](O)(C(=O)C(=O)N3CCCC[C@H]3C(=O)O[C@H](/C(C)=C/[C@@H]3CC[C@@H](O)[C@H](OC)C3)[C@H](C)[C@@H](O)CC1=O)[C@H](C)C[C@@H]2OC", "cell line": "Jurkat FKBP12 knockout", "assay": "NFAT luciferase reporter", "quantity": "EC50", "result": "0.00947 µM"}
{"SMILES": "CC(C)c1nc(CN(C)C(=O)N[C@H](C(=O)N[C@@H](Cc2ccccc2)C[C@H](O)[C@H](Cc2ccccc2)NC(=O)OCc2cncs2)C(C)C)cs1", "cell line": "ΔE-expressing cells", "assay": "ΔE mislocalization, high-content imaging", "quantity": "EC50", "result": "2.06 µM"}
{"SMILES": "COc1cc2ccnc3c2c(c1OC)NC=C3", "cell line": "786-0 HRE-luciferase reporter cells", "assay": "reporter gene, inhibitor", "conditions": "24 h", "quantity": "EC50", "result": "> 100 µM"}
{"SMILES": "CC(C)(C)NC(=O)[C@@H]1C[C@@H]2CCCC[C@@H]2CN1C[C@@H](O)[C@H](Cc1ccccc1)NC(=O)[C@H](CC(N)=O)NC(=O)c1ccc2ccccc2n1", "cell line": "ΔE-expressing cells", "assay": "ΔE mislocalization, high-content imaging", "quantity": "EC50", "result": "7.52 µM"}
{"SMILES": "CCn1cc(-c2cc(Cn3ccnc3)cc3c2CCN([C@H](c2cc(OC)ccn2)C2CC2)C3=O)c(C(F)(F)F)n1", "cell line": "CAMA-1", "assay": "cell growth, inhibitor", "conditions": "120 h", "quantity": "EC50", "result": "6.86 µM"}
{"note": "A few entries again:"}
{"SMILES": "CC(C)c1nc(CN(C)C(=O)N[C@H](C(=O)N[C@@H](Cc2ccccc2)C[C@H](O)[C@H](Cc2ccccc2)NC(=O)OCc2cncs2)C(C)C)cs1", "cell line": "ΔE-expressing cells", "assay": "ΔE mislocalization, high-content imaging", "quantity": "EC50", "result": "2.06 µM"}
{"SMILES": "COc1cc2ccnc3c2c(c1OC)NC=C3", "cell line": "786-0 HRE-luciferase reporter cells", "assay": "reporter gene, inhibitor", "conditions": "24 h", "quantity": "EC50", "result": "> 100 µM"}
{"SMILES": "CC(C)(C)NC(=O)[C@@H]1C[C@@H]2CCCC[C@@H]2CN1C[C@@H](O)[C@H](Cc1ccccc1)NC(=O)[C@H](CC(N)=O)NC(=O)c1ccc2ccccc2n1", "cell line": "ΔE-expressing cells", "assay": "ΔE mislocalization, high-content imaging", "quantity": "EC50", "result": "7.52 µM"}
